Assay results pooled from the literature.
Protocols differ between the studies behind these lines. “And” joins repeats or separate records; there may be more than shown. ± gives the spread as reported.
Trypanothione synthetase: Trypanothione synthetase (Trypanosoma brucei brucei, UniProt Q586P2)
HTR3A: 5-hydroxytryptamine receptor 3A (HTR3A, Homo sapiens, UniProt P46098)
UniProt P46098, sequence (whole entry, looked up): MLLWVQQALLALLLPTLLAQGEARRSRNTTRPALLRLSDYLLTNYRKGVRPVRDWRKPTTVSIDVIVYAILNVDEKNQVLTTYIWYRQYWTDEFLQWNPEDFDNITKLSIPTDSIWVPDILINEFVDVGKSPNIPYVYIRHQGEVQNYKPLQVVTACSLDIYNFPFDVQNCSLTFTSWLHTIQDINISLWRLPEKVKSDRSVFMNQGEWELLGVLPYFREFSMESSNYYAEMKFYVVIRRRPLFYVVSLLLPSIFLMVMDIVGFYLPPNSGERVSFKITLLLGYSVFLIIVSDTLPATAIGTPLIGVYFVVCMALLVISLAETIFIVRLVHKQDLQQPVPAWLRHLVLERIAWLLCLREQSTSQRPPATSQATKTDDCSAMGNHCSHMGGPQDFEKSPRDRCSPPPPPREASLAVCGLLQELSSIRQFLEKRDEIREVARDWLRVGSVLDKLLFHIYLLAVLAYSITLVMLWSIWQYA
CGAS catalytic domain; with DNA: Cyclic GMP-AMP synthase, catalytic domain; with DNA (CGAS, Homo sapiens, UniProt Q8N884)
UniProt Q8N884, sequence (whole entry, looked up): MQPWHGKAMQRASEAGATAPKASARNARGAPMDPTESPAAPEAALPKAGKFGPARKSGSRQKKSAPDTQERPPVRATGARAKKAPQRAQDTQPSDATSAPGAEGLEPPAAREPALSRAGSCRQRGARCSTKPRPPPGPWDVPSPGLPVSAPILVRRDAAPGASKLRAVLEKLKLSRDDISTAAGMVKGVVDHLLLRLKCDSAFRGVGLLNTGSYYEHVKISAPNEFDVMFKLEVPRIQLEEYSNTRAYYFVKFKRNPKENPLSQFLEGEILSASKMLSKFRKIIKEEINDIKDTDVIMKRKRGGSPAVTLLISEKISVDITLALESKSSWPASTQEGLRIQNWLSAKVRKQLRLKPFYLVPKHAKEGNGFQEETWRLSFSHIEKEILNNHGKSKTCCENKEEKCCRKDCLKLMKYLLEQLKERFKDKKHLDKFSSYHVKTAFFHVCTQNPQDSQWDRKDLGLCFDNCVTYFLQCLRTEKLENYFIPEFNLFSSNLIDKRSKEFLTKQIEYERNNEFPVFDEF
CGAS: Cyclic GMP-AMP synthase (CGAS, Homo sapiens, UniProt Q8N884)
ADRB3: Beta-3 adrenergic receptor (ADRB3, Homo sapiens, UniProt P13945)
UniProt P13945, sequence (whole entry, looked up): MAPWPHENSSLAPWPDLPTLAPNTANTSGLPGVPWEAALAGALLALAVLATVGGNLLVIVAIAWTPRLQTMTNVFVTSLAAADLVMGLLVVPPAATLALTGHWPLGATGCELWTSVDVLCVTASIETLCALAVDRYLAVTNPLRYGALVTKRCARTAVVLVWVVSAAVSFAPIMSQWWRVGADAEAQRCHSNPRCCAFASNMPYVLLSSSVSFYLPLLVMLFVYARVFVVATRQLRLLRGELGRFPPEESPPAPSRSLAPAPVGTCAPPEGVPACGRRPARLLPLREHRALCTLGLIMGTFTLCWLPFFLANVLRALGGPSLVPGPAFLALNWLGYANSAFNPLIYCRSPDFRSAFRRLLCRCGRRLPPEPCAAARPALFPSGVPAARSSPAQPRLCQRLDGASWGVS
UniProt P05067, sequence (whole entry, looked up): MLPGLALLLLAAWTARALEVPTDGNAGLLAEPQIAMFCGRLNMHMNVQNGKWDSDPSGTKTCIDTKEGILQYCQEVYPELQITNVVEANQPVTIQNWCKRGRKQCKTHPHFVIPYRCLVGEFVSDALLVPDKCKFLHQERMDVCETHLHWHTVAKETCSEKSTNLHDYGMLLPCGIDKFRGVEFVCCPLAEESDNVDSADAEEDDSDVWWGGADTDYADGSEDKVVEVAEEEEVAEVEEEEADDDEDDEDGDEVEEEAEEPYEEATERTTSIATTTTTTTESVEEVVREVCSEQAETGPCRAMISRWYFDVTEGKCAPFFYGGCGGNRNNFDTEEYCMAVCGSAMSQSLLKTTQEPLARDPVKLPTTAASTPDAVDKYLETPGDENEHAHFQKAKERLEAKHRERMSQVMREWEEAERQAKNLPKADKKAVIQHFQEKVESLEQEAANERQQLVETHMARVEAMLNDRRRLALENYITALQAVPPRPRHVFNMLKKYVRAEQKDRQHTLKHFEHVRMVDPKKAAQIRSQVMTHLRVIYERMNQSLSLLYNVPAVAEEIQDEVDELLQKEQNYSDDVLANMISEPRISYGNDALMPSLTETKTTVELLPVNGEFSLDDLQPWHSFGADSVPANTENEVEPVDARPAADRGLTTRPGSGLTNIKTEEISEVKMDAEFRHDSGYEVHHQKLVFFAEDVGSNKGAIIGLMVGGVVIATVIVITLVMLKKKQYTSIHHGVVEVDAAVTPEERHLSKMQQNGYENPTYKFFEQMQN
UniProt P42338, sequence (whole entry, looked up): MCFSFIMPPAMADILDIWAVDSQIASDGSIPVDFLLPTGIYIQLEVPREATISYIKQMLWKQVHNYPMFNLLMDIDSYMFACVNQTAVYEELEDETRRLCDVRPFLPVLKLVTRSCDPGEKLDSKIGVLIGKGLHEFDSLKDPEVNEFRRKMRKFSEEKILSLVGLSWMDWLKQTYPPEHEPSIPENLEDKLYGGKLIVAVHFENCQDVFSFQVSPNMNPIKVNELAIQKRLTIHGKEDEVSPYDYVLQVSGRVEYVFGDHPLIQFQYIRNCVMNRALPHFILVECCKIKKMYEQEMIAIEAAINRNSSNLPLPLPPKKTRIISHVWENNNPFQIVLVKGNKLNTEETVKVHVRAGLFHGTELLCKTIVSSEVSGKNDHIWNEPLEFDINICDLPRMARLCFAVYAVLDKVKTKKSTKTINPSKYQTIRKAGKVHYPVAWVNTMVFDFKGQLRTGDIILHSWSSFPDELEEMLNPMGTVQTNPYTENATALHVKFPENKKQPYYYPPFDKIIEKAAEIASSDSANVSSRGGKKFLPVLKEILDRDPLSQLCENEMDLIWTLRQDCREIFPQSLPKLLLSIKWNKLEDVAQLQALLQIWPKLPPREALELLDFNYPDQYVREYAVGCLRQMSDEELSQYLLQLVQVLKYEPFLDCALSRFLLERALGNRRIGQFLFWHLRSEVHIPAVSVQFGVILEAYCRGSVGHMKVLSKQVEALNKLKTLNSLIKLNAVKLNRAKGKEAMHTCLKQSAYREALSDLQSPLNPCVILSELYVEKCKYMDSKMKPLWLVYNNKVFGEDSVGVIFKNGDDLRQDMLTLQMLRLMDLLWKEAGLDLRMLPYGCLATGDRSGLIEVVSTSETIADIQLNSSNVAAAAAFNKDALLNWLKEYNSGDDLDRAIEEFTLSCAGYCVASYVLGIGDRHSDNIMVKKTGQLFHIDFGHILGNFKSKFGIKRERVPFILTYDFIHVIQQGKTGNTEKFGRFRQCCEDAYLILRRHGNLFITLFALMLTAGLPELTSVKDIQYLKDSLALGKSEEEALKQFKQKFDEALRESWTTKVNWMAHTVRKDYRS
UniProt P54762, sequence (whole entry, looked up): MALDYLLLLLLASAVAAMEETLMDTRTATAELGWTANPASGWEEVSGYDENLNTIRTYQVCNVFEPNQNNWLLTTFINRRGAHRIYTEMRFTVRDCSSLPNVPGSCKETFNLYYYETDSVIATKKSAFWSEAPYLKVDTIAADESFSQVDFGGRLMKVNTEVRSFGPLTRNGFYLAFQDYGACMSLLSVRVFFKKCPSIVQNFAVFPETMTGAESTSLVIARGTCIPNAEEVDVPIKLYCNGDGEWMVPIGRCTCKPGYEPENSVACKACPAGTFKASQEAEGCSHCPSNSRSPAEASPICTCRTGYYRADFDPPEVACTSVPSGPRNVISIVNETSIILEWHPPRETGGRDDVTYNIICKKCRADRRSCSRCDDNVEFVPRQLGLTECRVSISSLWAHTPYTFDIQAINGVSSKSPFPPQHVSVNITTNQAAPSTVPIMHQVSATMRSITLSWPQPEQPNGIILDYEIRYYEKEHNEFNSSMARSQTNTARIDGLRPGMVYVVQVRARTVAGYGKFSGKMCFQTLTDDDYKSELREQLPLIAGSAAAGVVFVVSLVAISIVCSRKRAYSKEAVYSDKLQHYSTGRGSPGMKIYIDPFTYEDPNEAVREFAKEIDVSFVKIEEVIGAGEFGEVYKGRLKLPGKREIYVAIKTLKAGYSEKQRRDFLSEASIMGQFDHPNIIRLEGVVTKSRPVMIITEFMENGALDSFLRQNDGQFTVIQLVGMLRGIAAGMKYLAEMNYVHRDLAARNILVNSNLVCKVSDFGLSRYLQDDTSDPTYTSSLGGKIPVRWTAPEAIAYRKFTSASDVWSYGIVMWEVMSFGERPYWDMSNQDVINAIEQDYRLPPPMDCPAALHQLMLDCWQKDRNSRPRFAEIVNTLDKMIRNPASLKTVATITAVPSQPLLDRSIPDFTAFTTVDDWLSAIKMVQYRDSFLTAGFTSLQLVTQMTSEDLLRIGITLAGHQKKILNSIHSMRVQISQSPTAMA
UniProt Q03330, sequence (whole entry, looked up): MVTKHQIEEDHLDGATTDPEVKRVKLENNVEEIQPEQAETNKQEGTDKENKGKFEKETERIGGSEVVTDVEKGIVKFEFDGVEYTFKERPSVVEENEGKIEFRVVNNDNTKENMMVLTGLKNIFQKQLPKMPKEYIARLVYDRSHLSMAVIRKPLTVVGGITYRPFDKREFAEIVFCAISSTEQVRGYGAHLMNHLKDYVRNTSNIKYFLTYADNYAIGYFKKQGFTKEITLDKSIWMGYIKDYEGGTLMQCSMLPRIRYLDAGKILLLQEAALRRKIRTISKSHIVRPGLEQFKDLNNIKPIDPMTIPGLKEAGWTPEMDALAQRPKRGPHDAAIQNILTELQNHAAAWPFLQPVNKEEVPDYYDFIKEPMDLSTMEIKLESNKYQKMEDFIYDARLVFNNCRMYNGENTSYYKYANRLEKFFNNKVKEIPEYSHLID
UniProt Q9HBW0, sequence (whole entry, looked up): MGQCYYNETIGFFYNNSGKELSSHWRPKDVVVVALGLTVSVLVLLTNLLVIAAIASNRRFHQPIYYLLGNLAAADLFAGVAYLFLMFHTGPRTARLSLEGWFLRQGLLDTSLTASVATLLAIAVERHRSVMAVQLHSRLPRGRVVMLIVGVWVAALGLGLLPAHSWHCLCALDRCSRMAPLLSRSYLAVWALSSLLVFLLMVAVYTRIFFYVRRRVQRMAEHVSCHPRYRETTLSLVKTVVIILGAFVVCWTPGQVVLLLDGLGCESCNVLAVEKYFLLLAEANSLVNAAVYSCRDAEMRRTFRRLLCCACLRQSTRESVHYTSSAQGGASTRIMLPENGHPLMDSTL

CNc1ccc(-c2nc3ccc(O)cc3s2)cc1  inhibition (Amyloid-beta precursor protein, amyloid-beta (APP, Homo sapiens, UniProt P05067); binding, competition binding; amyloid-beta aggregates; 11.11 nM, together with: tritiated amyloid ligand): 78.1% and 66.7%
C=CC1=C(C)C2=Cc3c(C=C)c(C)c4[n]3[Sn]([Cl])([Cl])[n]3c(c(C)c(CCC(=O)O)c3=CC3=NC(=C4)C(C)=C3CCC(=O)O)=CC1=N2  inhibition (Trypanothione synthetase; enzyme activity, BIOMOL Green phosphate release; 25 µM): 13.8 ± 11.2%
OO  inhibition (Histone acetyltransferase GCN5, with Ada2 and Ada3 (Saccharomyces cerevisiae S288c, UniProt Q03330); enzyme activity, inhibitor; 62.5 µM, Gcn5-Ada2-Ada3 complex, 1 mM DTT, together with: [3H]acetyl-CoA): 17 ± 10%
c1cncc(OC[C@H]2CN(CCN3CCc4ccccc43)CCO2)c1  inhibition (HTR3A; radioligand binding; concentration not given, together with: [3H]GR65630): -16%
CN(C(=O)n1cnc(-c2ccc[n+]([O-])c2)c1)C1CCCCC1  inhibition (Sigma non-opioid intracellular receptor 1 (SIGMAR1, Homo sapiens, UniProt Q99720); 10 µM): 7.89%
CN1CCN(c2cc(-c3ccncc3)c(-c3ccc4ccccc4c3)nn2)CC1  inhibition (Lysophosphatidic acid receptor 2 (LPAR2, Homo sapiens, UniProt Q9HBW0); antagonist, FLIPR; 10 µM): 39.9%
Cc1nn(-c2nc3ccccc3[nH]2)c(O)c1C(c1ccccc1C(=O)O)c1c(C)nn(-c2nc3ccccc3[nH]2)c1O  inhibition (CGAS catalytic domain; with DNA; liquid-liquid phase separation, inhibitor; 1.25 µM): 86.4%
CCN(CC)c1ccc(C2=NNC(=O)CC2C)cc1[N+](=O)[O-] (stereo not drawn)  inhibition (cGMP-specific 3',5'-cyclic phosphodiesterase (PDE5A, Homo sapiens, UniProt O76074); enzyme activity, Caliper; 0.1 µM): 16%
CN(c1ncccc1CNc1nc(Nc2ccc3c(c2)CC(=O)N3)ncc1C(F)(F)F)S(C)(=O)=O  inhibition (JNK (human); kinase activity; 1 µM): 7.8%
O=C(Nc1cccc2c(=O)cc(-c3nnn[nH]3)oc12)c1ccc(OCCCCc2ccccc2)cc1  inhibition (Volume-regulated anion channel subunit LRRC8C, part LRRC8A IL1 chimera (LRRC8C, Homo sapiens, UniProt Q8TDW0, Y126F); ion current, inhibitor, whole-cell patch clamp; HCT LRRC8-/- cells; 0.3 µM, -100 mV): 29.1% and 29% and 24.7% and 28.2% and 9.86%
O=C(CN1CCO[C@@H](COc2cccnc2)C1)N1CCc2ccccc21  inhibition (HTR3A; radioligand binding; concentration not given, together with: [3H]GR65630): 6.9%
CNc1cc(Oc2cc(C(=O)Nc3cc(N4CCN(C)CC4)cc(C(F)(F)F)c3)ccc2C)ncn1  inhibition (Serine/threonine-protein kinase STK11 (STK11, Homo sapiens, UniProt Q15831); kinase activity; 1 µM): -12.4%
CS(=O)(=O)O.c1cc2c(cc1C1CCCCC1)c1c3n2CCNC3CCC1 (stereo not drawn)  inhibition (Trypanothione synthetase; enzyme activity, BIOMOL Green phosphate release; 25 µM): 26 ± 4.6%
CN1CC(Oc2cnc(C#N)cc2-c2ccn3nc(NC(=O)C4CC4)cc3c2)C1  inhibition (Casein kinase II subunit alpha (CSNK2A1, Homo sapiens, UniProt P68400); kinase activity; 1 µM, ATP10): 2%
Cc1nn(-c2nc3c(F)cc(F)cc3s2)c(O)c1C(c1ccccc1C(F)(F)F)c1c(C)nn(-c2nc3c(F)cc(F)cc3s2)c1O  inhibition (CGAS; enzyme activity, inhibitor, pyrophosphatase-coupled; 25 µM, 1.5 h, together with: HT-DNA): 64.5%
COc1ccc(F)cc1C(=O)NCc1ccc(-c2nn([C@@H](C)C(F)(F)F)c(N)c2C(N)=O)cc1  inhibition (Phosphatidylinositol 4,5-bisphosphate 3-kinase catalytic subunit beta isoform (PIK3CB, Homo sapiens, UniProt P42338); target engagement, competitive chemoproteomics; human PBMCs; 0.1 µM): -4.7%
Cc1nn(-c2nc3ccccc3[nH]2)c(O)c1C(c1ccccn1)c1c(C)nn(-c2nc3ccccc3[nH]2)c1O  inhibition (CGAS; enzyme activity, inhibitor, pyrophosphatase-coupled; 100 µM, 1.5 h, together with: HT-DNA): 58.4%
Cc1ncccc1OC[C@@H]1CN(CCN2CCc3ccccc32)CCO1  inhibition (HTR3A; radioligand binding; concentration not given, together with: [3H]GR65630): -15.2%
Cc1nc(Nc2ncc(C(=O)Nc3c(C)cccc3Cl)s2)cc(N2CC[C@H](O)C2)n1  inhibition (Ephrin type-B receptor 1 (EPHB1, Homo sapiens, UniProt P54762); 0.01 µM): ~91%
COc1cc(C(=O)NS(=O)(=O)c2ccccc2C)ccc1Cc1cn(C)c2ccc(NC(=O)OC3CCCC3)cc12  inhibition (Volume-regulated anion channel subunit LRRC8C, part LRRC8A IL1 chimera (LRRC8C, Homo sapiens, UniProt Q8TDW0, C43G/S11C); ion current, inhibitor, whole-cell patch clamp; HCT LRRC8-/- cells; 30 µM, +100 mV): 72.8% and 88.7% and 80.5% and 86% and 90%
N[C@@H](CCC(=O)O)C(=O)O  inhibition (NMDA receptor agonist site (rat); radioligand binding; rat brain; 1×10 µM): 100%
CC[C@@H]1[C@H](F)C(=O)N[C@@H]1COc1nccc2cc(C(N)=O)c(OC)cc12  inhibition (Dual specificity mitogen-activated protein kinase kinase 6 (MAP2K6, Homo sapiens, UniProt P52564); ATP-site probe binding, ActivX profiling; THP-1 cell lysate; 0.2 mM, Lys2 site): 12.8%
Ic1cccc2cnccc12  inhibition (ATP-binding cassette sub-family C member 8 (ABCC8, Cricetus cricetus, UniProt Q09427); binding, radioligand binding; 10 µM): 0%
O=C1c2ccccc2CCN1CCCCN1CCN(c2ccccn2)CC1  inhibition (HTR3A; radioligand binding; concentration not given, together with: [3H]GR65630): 36.6%
Cc1nn(-c2nc3c(F)cc(F)cc3s2)c(O)c1C(c1ccc(C(F)(F)F)cc1)c1c(C)nn(-c2nc3c(F)cc(F)cc3s2)c1O  inhibition (CGAS catalytic domain; with DNA; cGAS phase separation, inhibitor; 0.781 µM): 12.3%
NC/C(=C\F)COc1cccc(Cn2c(=S)[nH]c(=O)c3[nH]cnc32)c1  inhibition (Myeloperoxidase (MPO, Homo sapiens, UniProt P05164); enzyme activity; 0.1111 µM): 90.8%
C[C@@H]1CCO[C@H]2Cn3cc(C(=O)NCc4ccc(F)cc4F)c(=O)c(O)c3C(=O)N12  inhibition (Solute carrier family 22 member 3 (SLC22A3, Homo sapiens, UniProt O75751); transport; MDCK-II, transfected; 0.5 µM, together with: MPP+ 2 µM): 11.6%
O=C(CSc1nc2nccnc2c(=O)n1CCc1ccccc1)Nc1nccs1  inhibition (Phosphatidylinositol 4,5-bisphosphate 3-kinase catalytic subunit beta isoform, with p85 beta (PIK3CB, Homo sapiens, UniProt P42338); kinase activity, inhibitor; 10 µM, together with: PIK3R2 complex): 8%
O=C(CN1CCO[C@H](COc2cccc(Cl)c2)C1)N1CCc2ccccc21  inhibition (HTR3A; radioligand binding; concentration not given, together with: [3H]GR65630): 8.3%
CCc1nn(C)c2nc(-c3ccc(C(=O)O)cc3)nc(NCc3ccc(F)cc3)c12  inhibition (3',5'-cyclic-AMP phosphodiesterase 4D (PDE4D, Homo sapiens, UniProt Q08499); inhibitor; 10 µM, mean of replicates, together with: [3H]cAMP; reference: control): 42%
Cc1cc2c(cc1N1C(=O)c3cccc4c(CCCO)ccc(c34)C1=O)n(C)c(=O)n2C (racemic)  inhibition (ATPase family AAA domain-containing protein 2 (ATAD2, Homo sapiens, UniProt Q6PL18); binding, BROMOscan binding; 100 nM): 93%
O=C1c2ccccc2CCCN1CCCCN1CCN(c2ccccn2)CC1  inhibition (HTR3A; radioligand binding; concentration not given, together with: [3H]GR65630): 19.4%
OCCCN1CC[C@@H]2C[C@H]1c1cc(-c3ccc(C(F)(F)F)cc3)ccc12  inhibition (ADRB3; radioligand binding, PDSP competition binding; 10 µM): < 50%
C#Cc1cc(-c2cc(Nc3nc(N[C@@H](C)c4ccc(F)cn4)ncc3Cl)n[nH]2)ccc1C=O  inhibition (High affinity nerve growth factor receptor (NTRK1, Homo sapiens, UniProt P04629, A608D/G595R); enzyme activity, inhibitor; 0.2 µM): 101%
COc1cccc(OC[C@@H]2CN(CC(=O)N3CCc4ccccc43)CCO2)c1  inhibition (HTR3A; radioligand binding; concentration not given, together with: [3H]GR65630): 18.6%
O=C(NO)c1ccc(CN2CCCCc3ccccc32)c(F)c1  inhibition (ADRB3; radioligand binding, radioligand displacement; 10 µM, mean of replicates): 5.33%
